Measurements gathered from unrelated publications.
Compare with care: the assays were run in different laboratories. ± gives the spread as reported. Converted amounts (≈) assume the structure as drawn.

SMILES | organism | test | test system | conditions | how to read | quantity | result
COc1ccc(-n2c(SCc3cccnc3)nnc2[C@H](Cc2ccccc2)NC(=O)Cc2c(C)[nH]c3ccccc23)cc1 | HIV-2 |  | MT-4, wild type |  | reference: CC50 over EC50 | selectivity index | 6
CN[C@@H]1[C@H](O)[C@H](NC)[C@H]2O[C@]3(O)[C@H](O[C@@H]2[C@H]1O)O[C@H](C)C[C@@]3(O)CNCCc1ccc(F)cc1 | Mycobacteroides abscessus | LC-MS/MS, measured: intracellular compound | ATCC 19977 | 100 µM, 30 min | reference: compound over spectinomycin | intracellular accumulation ratio | 8.4 fold
COc1ccc(-n2c(SCCN3CCOCC3)nnc2[C@H](Cc2ccccc2)NC(=O)Cc2c(C)[nH]c3ccccc23)cc1 | HIV-2 |  | MT-4, wild type |  | reference: CC50 over EC50 | selectivity index | 16
CN[C@@H]1[C@H](O)[C@H](NC)[C@H]2O[C@]3(O)[C@H](O[C@@H]2[C@H]1O)O[C@H](C)C[C@@]3(O)CNCCc1ccc(C)cc1 | Mycobacteroides abscessus | LC-MS/MS, measured: intracellular compound | ATCC 19977 | 100 µM, 30 min | reference: compound over spectinomycin | intracellular accumulation ratio | 13.2 fold
CN[C@H](CC(C)C)C(=O)N[C@H]1C(=O)N[C@@H](CC(N)=O)C(=O)N[C@H]2C(=O)N[C@H]3C(=O)N[C@H](C(=O)N[C@H](C(=O)O)c4cc(O)cc(O)c4-c4cc3ccc4O)[C@H](O)c3ccc(c(Cl)c3)Oc3cc2cc(c3O[C@@H]2O[C@H](CO)[C@@H](O)[C@H](O)[C@H]2O[C@H]2C[C@](C)(NCc3ccc(C(=O)OCCCCCCN(Cc4ccccn4)Cc4ccccn4)cc3)[C@H](O)[C@H](C)O2)Oc2ccc(cc2Cl)[C@H]1O | Bacillus subtilis | protein synthesis, measured: KtrC | 168 | concentration not given, 10 min, at peak effective concentration | reference: untreated | regulation factor | 5.4 ± 2.2
CO[C@H]1/C=C/O[C@@]2(C)Oc3c(C)c(O)c4c(c3C2=O)C2=NC3(CCN(CC(C)C)CC3)NC2=C(NC(=O)/C(C)=C\C=C\[C@H](C)[C@H](O)[C@@H](C)[C@@H](O)[C@@H](C)[C@H](OC(=O)c2cccc(F)c2)[C@@H]1C)C4=O | Mycobacteroides abscessus |  | ATCC 19977 |  | reference: wild type over arr deletion | MIC ratio | 0.6
CC1(CCCCCCCCCCCCOCCCOP(=O)(O)CO[C@H](CO)Cn2ccc(N)nc2=O)COC1 | human gammaherpesvirus 8 | qPCR | BCBL-1 |  | reference: CC50 over EC50 | selectivity index | > 1670
O=C(Nc1ccccc1Nc1ccccc1)c1cccnc1Br | Valsa mali | mycelial growth, mycelial growth rate method |  | 50 mg/L |  | inhibition | 4.55%
CNCc1ccc2c(c1)N(C(=O)OCc1c(F)c(F)c(F)c(F)c1F)[C@H](CNC(=N)N)[C@H]2NC(=O)C(=O)Nc1ccc(Cl)c(F)c1 | HIV-1 JR-FL pseudovirus | viral infection | Cf2Th-CD4/CCR5 cells |  | reference: BNM-III-170 | potency fold increase | 23 fold
CCCSC[C@H]1CN(Cc2c[nH]c3c(N)ncnc23)C[C@@H]1O | Helicobacter pylori | microbial growth |  |  |  | IC90 | 10 ng/mL (≈ 0.0311 µM)
CC(C)(C)NCC(SS(=O)(=O)O)c1ccccc1 (stereo not shown) | Schistosoma mansoni |  | mice | oral, 100 mg/kg single dose, 42 days post-infection | reference: vehicle | female worm burden reduction | 83%
CC1(CCCCCCCCCCOCCCOP(=O)(O)CO[C@H](CO)Cn2ccc(N)nc2=O)COC1 | human gammaherpesvirus 8 | qPCR | BCBL-1 |  | reference: CC50 over EC50 | selectivity index | > 94
CO[C@H]1/C=C/O[C@@]2(C)Oc3c(C)c(O)c4c(c3C2=O)C2=NC3(CCN(CC(C)C)CC3)NC2=C(NC(=O)/C(C)=C\C=C\[C@H](C)[C@H](O)[C@@H](C)[C@@H](O)[C@@H](C)[C@H](OC(=O)c2ccccc2Cl)[C@@H]1C)C4=O | Mycobacteroides abscessus |  | ATCC 19977 |  | reference: wild type over arr deletion | MIC ratio | 0.9
N#Cc1ccc(CSc2nc3cc4ccccc4cc3c(=O)n2Cc2ccccc2)cc1 | coxsackievirus B4 | plaque | BGM | concentration not given, non-toxic dose |  | virus titre reduction | 33.3 ± 2%
CCOC(=O)C1=C(C)NC2=C(C(=O)CC(C)(C)C2)C1c1ccc(OCC(=O)NN=Cc2cc(Br)c(O)c(Br)c2)cc1OCC(=O)NN=Cc1cc(Br)c(O)c(Br)c1 (stereo not shown) | Pseudomonas fluorescens |  |  | concentration not given, 24 h, 37 °C |  | inhibition zone diameter | 4.3 ± 0.2 mm
CCCCCCCCCC(=O)N[C@@H](Cc1c[nH]c2ccccc12)C(=O)N[C@H](CC(N)=O)C(=O)N[C@@H](CC(=O)O)C(=O)N[C@@H]1C(=O)NCC(=O)N[C@@H](CCCNC(=O)OC2/C=C/CCCCC2)C(=O)N[C@@H](CC(=O)O)C(=O)N[C@H](C)C(=O)N[C@@H](CC(=O)O)C(=O)NCC(=O)N[C@H](CO)C(=O)N[C@@H]([C@H](C)CC(=O)O)C(=O)N[C@@H](CC(=O)c2ccccc2N)C(=O)O[C@@H]1C (stereo partly shown) | Staphylococcus aureus | isothermal microcalorimetry | MRSA | 24 h, 37 °C, TAG gel |  | minimum heat inhibitory concentration | 1 µg/mL
Oc1c(Br)cc(Br)c2nc3c(C(F)(F)F)cc(C(F)(F)F)cc3nc12 | Staphylococcus aureus | Calgary Biofilm Device | MRSA 1 |  |  | MBEC | 0.39 µM

SMILES | organism | test | test system | conditions | how to read | quantity | result
COc1ccc(-n2c(SCc3ccncc3)nnc2[C@H](Cc2ccccc2)NC(=O)Cc2c(C)[nH]c3ccccc23)cc1 | HIV-2 |  | MT-4, wild type |  | reference: CC50 over EC50 | selectivity index | 6
C=C1NC(=O)c2csc(n2)C2=NC3c4csc(n4)C4NC(=O)c5csc(n5)C(C(C)(O)C(C)O)NC(=O)C5CSC(=N5)C(=CC)NC(=O)C(C(C)O)NC(=O)c5csc(n5)C3(CC2)NC(=O)C(CSCC(C(N)=O)NC1=O)NC(=O)C(=C)NC(=O)C(C)NC(=O)C(C(C)CC)NC1C=Cc2c(C(C)O)cc(nc2C1O)C(=O)OC4C (single isomer, unassigned) | Staphylococcus aureus, Bacillus, Enterococcus faecium |  |  | three strains combined | reference: thiostrepton A | fold increase in MIC | ≤ 300 fold
C=C(CO)C(=O)O[C@H]1CC(=C)[C@@H]2C[C@H](O)[C@](O)(CCl)[C@@H]2[C@H]2OC(=O)C(=C)C12 (stereo partly shown) | Proteus vulgaris |  |  | concentration not given |  | inhibition zone | 9 ± 1.3 mm
OC[C@H]1O[C@@H](n2cnc3c(SCc4ccccc4)nc(Cl)nc32)C[C@@H]1O | Helicobacter pylori |  | 26695 | 200 µM, partially precipitated |  | growth inhibition | inhibited
COc1ccc(S(=O)(=O)NCc2c[nH]nc2-c2cccs2)cc1 | Plasmodium falciparum | parasite reduction ratio | 3D7 | 10 × IC50 |  | lag time before killing | 24 h
CO[C@H]1/C=C/O[C@@]2(C)Oc3c(C)c(O)c4c(c3C2=O)C2=NC3(CCN(CC(C)C)CC3)NC2=C(NC(=O)/C(C)=C\C=C\[C@H](C)[C@H](O)[C@@H](C)[C@@H](O)[C@@H](C)[C@H](OC(=O)c2ccccc2-c2ccccc2)[C@@H]1C)C4=O | Mycobacteroides abscessus |  | ATCC 19977 |  | reference: wild type over arr deletion | MIC ratio | 1.8
O=C(Nc1ccc2c(c1)CN(c1ccc(Cl)cc1)C2=O)N1CC[C@H](F)C1 | Trypanosoma brucei rhodesiense | cell growth, resazurin | STIB-900 | concentration not given, 3 days |  | growth inhibition | inactive
Nc1ccn(C[C@@H](CO)OCP(=O)(O)OCCCS(=O)(=O)CCCCCCCCCCC2CCC2)c(=O)n1 | human gammaherpesvirus 8 | qPCR | BCBL-1 |  | reference: CC50 over EC50 | selectivity index | 51
COc1ccc(-c2nc(-c3ccccc3OC)[nH]c2-c2ccc(OC)cc2)cc1 | Schistosoma mansoni |  | worm couples | 10 µM |  | reduction in egg number | 100%
CC(=O)N[C@H](CCCCN)C(=O)N[C@H](CC(C)C)C(=O)N[C@H](CCCCN)C(=O)N[C@H](CO)C(=O)N[C@H](CC(C)C)C(=O)N[C@H](CC(C)C)C(=O)N[C@H](CCCCN)C(=O)N[C@@H](C(=O)N[C@H](CC(C)C)C(=O)N[C@H](CO)C(=O)N[C@H](CCCCN)C(=O)N[C@H](C)C(=O)N[C@H](CCCCN)C(=O)N[C@H](CCCCN)C(=O)N[C@H](CCCCN)C(=O)N[C@H](CC(C)C)C(=O)N[C@H](CC(C)C)C(=O)N[C@H](CCCCN)C(=O)N[C@@H](C(=O)N[C@H](C)C(=O)N[C@H](CC(C)C)C(=O)N[C@H](CCCCN)C(=O)N[C@H](C)C(=O)N[C@H](CC(C)C)C(=O)N[C@H](CO)C(=O)N[C@H](CCCCN)C(N)=O)[C@H](C)O)[C@H](C)O | Acinetobacter baumannii |  | 11 isolates |  |  | MIC geometric mean | 0.5 µM (≈ 1.46 µg/mL)
CN(C)CCCSC(=S)N1CCN(C(=O)/C=C/c2coc3ccccc3c2=O)CC1 | PMMoV | virus inactivation |  | 500 µg/mL, mean |  | inhibition | 70.8%
CC=C(C)C(=O)OC1CC2C(C=C(C)C3C(OC(C)=O)CC(=O)C13C)OC(=O)C2C (stereo not shown) | Helicobacter pylori | broth microdilution |  | concentration not given |  | antibacterial activity | inactive
CC1CCC2C1C1C(CCC23CCC2=C(O3)C(C)(C)C(=O)C(=C(O)C=Cc3ccccc3)C2=O)C1(C)C (stereo not shown) | human respiratory syncytial virus | viral replication, CPE reduction | HEp-2, A2 |  |  | IC50 | 23.8 ± 1.25 µM
CC(C)(C)OC(=O)/C=C/c1ccc(O)c(C(=O)C(CCC(=O)OC(C)(C)C)CCC(=O)OC(C)(C)C)c1 | Trypanosoma brucei rhodesiense |  | STIB900 bloodstream forms |  | reference: L6 cell cytotoxicity over T. b. rhodesiense activity | selectivity index | 65
O=C1c2ccccc2C(=O)N1CCCSc1nc2cc3ccccc3cc2c(=O)n1Cc1ccccc1 | coxsackievirus B4 | plaque | BGM | concentration not given, non-toxic dose |  | virus titre reduction | 0%
CCCCSC[C@H]1CN(Cc2c[nH]c3c(N)ncnc23)C[C@@H]1O | Helicobacter pylori | growth | horse blood agar 5% |  |  | IC90 | 6 to 8 ng/mL (≈ 0.0179 to 0.0238 µM)
CCOC(=O)C1=C(C)NC2=C(C(=O)CC(C)(C)C2)C1c1ccc(OCC(=O)NN=Cc2cccc([N+](=O)[O-])c2)cc1OCC(=O)NN=Cc1cccc([N+](=O)[O-])c1 (stereo not shown) | Proteus vulgaris |  |  | concentration not given, 24 h, 37 °C |  | inhibition zone diameter | 5.1 ± 0.6 mm
